Experimental data collected from several papers.
B1: hin (Salmonella enterica, UniProt P03013); chain MATIGYIRVSTIDQNIDLQRNALTSANCDRIFEDRISGKIANRPGLKRALKYVNKGDTLVVWKLDRLGRSVKNLVALISELHERGAHFHSLTDSIDTSSAMGRFFFHVMSALAEMERELIVERTLAGLAAARAQGRLGGRPRAINKHEQEQISRLLEKGHPRQQLAIIFGIGVSTLYRYFPASRIKKRMN
B2: coat protein 2-130 (bacteriophage MS2, UniProt P03612); chain ASNFTQFVLVDNGGTGDVTVAPSNFANGVAEWISSNSRSQAYKVTCSVRQSSAQNRKYTIKVEVPKVATQTVGGVELPVAAWRSYLNMELTIPIFATNSDCELIVKAMQGLLKDGNPIPSAIAANSGIY
B3: mpr D188A (Mycobacterium smegmatis, UniProt Q50442); chain MTTPQPYPGMPSQPAPQGVPYPPQQPAKKKRKWPAIVGGVIALMIVGSIFNDDKKDTTPAENTATVAQAPAAAPTKEVPETTATINTPVRDGKFEFVVRSVEPGLSEVGDNPFLNQKAQGQFVIVTLSVQNIGDRPQGFSPSNQKLFDTEGRSFETDTSAQIALDNNDIAVWDNINPGNTVDVSLVYAMPVDAVPASIELHDSMFSGGVTVNLTP
B4: recA (Acinetobacter baumannii, UniProt A3M645); sequence looked up; chain MDENKSKALQAALSQIEKQFGKNTVMRLGDNTVQAVEAVSTGSLTLDIALGIGGLPKGRIIEIYGPESSGKTTMTLQAIAQCQKSGGTCAFIDAEHALDPQYARKLGVDIDNLLVSQPDNGEQALEIADMLVRSGAIDLIVVDSVAALTPKAEIEGEMGDSHMGLQARLMSQALRKITGNAKRSNCMVIFINQIRMKIGVMFGSPETTTGGNALKFYASVRLDIRRIGQVKEGDEIVGSETKVKVVKNKMAPPFKEAIFQILYGKGTNQLGELVDLAVQQDIVQKAGAWYSYQGNKIGQGKNNVIRYFEENTQIAEEIERNIREQLLTTGTNGAVQIEDEEEPDLLLES
B5: ureR N117S (Escherichia coli, UniProt P32326); chain MEYKFFLSESQMVLKAFYIESAMIAMLTGAKGNIVINGQSIEIESDVTLIIPKYSQVSCNIVCNTVKQPLELHTLSMSAEELQAVFLLLKTLMKSGAPLTSHQPIYHISPPETVRDSFSLLKQCLPLKKQSASQEALLMKQSLYFILMAIYQEGIDILNLFRFNYDEPKNQAITHLITQEPQKKWHLDDVAKALFTTPSTLRRHLNREGVSFRQLLLDVRMGMALNYLTFSNYSVFQISHRCGFGSNAYFCDVFKRKYNMTPSQFRLQSRQSNDPNFITNLSLRSNPIEFDKEIDE
B6: higA 1-104 (Proteus vulgaris, UniProt Q7A224); chain MRQFKVSHPGEMIARDLEDMGVSGRRFAHNIGVTPATVSRLLAGKTALTPSLSIRIAAALGSTPEFWLRLQSNYDLRQLENQIDTSGIVLYGESNEQQQNAQEH
B7: pnp 1-763 D532A (Mycobacterium smegmatis, UniProt A0QVQ5); chain MSVVELEDGVYESTAVIDNGSFGTRTIRFETGRLAQQAAGSAVAYLDDETMLLSATTASKNPKDHFDFFPLTVDVEERMYAAGRIPGSFFRREGRPSTDAILTCRLIDRPLRPSFVDGLRNEIQVVVTVMSLDPKDLYDVLAINAASMSTQLAGLPFSGPVGGARIALIDGTWVAFPTVEQLERAVFDMVVAGRIVGDGDSADVAIMMVEAEATENVVELVAGGAQAPTEAVVAEGLEAAKPFIKALCAAQQELADRAAKPAGEYPVFPDYEADVYDAVASVATEALAEALTIAGKTERNDRTDEIKVEVLERLAEPYAGREKEIGAAFRSLTKKLVRQRILTDHFRIDGRGITDIRALSAEVAVIPRAHGSALFERGETQILGVTTLDMIKMAQQIDSLGPENTKRYMHHYNFPPYSTGETGRVGSPKRREIGHGALAERALVPVLPSIEEFPYAIRQVSEALGSNGSTSMGSVCASTLALLNAGVPLKAPVAGIAMGLVSDDVDVDGKVEKRYVALTDILGAEDAFGDMAFKVAGTKDFVTALQLDTKLDGIPSQVLAGALSQAKDARLTILDVMAEAIDRPDEMSPYAPRITTIKVPVDKIGEVIGPKGKMINSITEETGAQISIEDDGTVFVGAADGLSAQAAIDKINAIANPQLPKVGERFLGTVVKTTDFGAFVSLLPGRDGLVHISKLGKGKRIAKVEDVVKVGDKLRVEIADIDNRGKISLVLVAEESAESAESAGDKGAEKAEGAAADVTPAEA
B8: PALB2 DBD 1-195 (Homo sapiens, UniProt Q86YC2); MTSSL spin label position 11; chain MDEPPGKPLSCEEKEKLKEKLAFLKREYSKTLARLQRAQRAEKIKHSIKKTVEEQDALSQQDLSPQLKHSEPKNKIAVYDKLHIKTHLDEETGEKTSITLDVGPESFNPGDGPGGLPIQRTDDTQEHFPHRVSDPSGEQKQKLPSRRKKQQKRTFISQERDAVFGTDSLRLSGKRLKEQEEISSKNPARSPVTEW
B9: ThcOx 1-473 (Cyanothece sp. PCC 7425); chain GGGGMLDLFTLSFSPDLSIASEAEQLTLQSKDDRLILEHPQPGLRTALEQLKQGNLTLAQLTELVSEQDGVEAGITFASELEKLVDLGWICHSVLPLITAIPIAKDYELNVPDSSWQTTAIALSRFAFLHQDLQQLVLESPRSKSKLVILDWRVGAVIAKLAQSDRGFIFATSADSLLADLSLELEELKRLFALLIATQMMDLEPEDETITQWKFHNLLFHHYTRLGRLDNSRKLNLPVFEHRDRYPYVKPVISTQAIPLVKPDLTALATTDMTLTEAIETRRSIREYSDQPITLAQLGEFLYRCARVKAVYTLPEDPMQVGESTTRPYPSGGALYELEIYPLVHQCGDLAAGLYHYQPLSHTLHPVADWTPEVESLVYDAWRATGQQSIPQIVLIITARFGRLFWKYHDIAYSLILKHVGVLYQTFYLVATAMQLAPSAIGAGNTTKFCQIAGLNPDEEASVGEFSLGAAKPQQQS

`B1 (hin)`: binding “binds” (itself; native gel).
`B2 (coat protein 2-130)`: binding “binds” (itself; SEC).
`B3 (mpr D188A)` — result for binding: “binds” (itself; cross-linking; added: GTP).
`B4 (recA)`: binding “binds” (itself; SEC).
`B5 (ureR N117S)` — result for binding: “binds” (itself; SEC).
For `insulin human`, the fold change was 1.01 (item: RIMS1 mRNA; EcoHIV-infected mouse, brain; i.p., dose not given; reference: PBS).
For `B6 (higA 1-104)`, binding read “binds” (itself; SEC).
For `B7 (pnp 1-763 D532A)`, binding read “binds” (itself; SEC).
For `B8 (PALB2 DBD 1-195)`, binding read “binds” (itself; DEER spectroscopy).
`B9 (ThcOx 1-473)` — result for binding: “binds” (itself; crystal structure).

A few entries again:
`B5 (ureR N117S)` — result for binding: “binds” (itself; SEC).
